Assay results from different studies.
± gives the spread as reported.

SMILES = Cc1cn([C@H]2O[C@@H](CO[P@@](=O)(N[C@@H](C)C(=O)OC(C)C)Oc3ccccc3)[C@H](O)[C@H]2F)c(=O)[nH]c1=O; assay = measured: Inflammation; test system = human; setting = 25 mg; endpoint = patients with TEAE; value = 0%
SMILES = CC1(C)C(C=C(Cl)Cl)C1C(=O)OC(C#N)c1ccc(F)c(Oc2ccccc2)c1 (stereo not shown); assay = measured: CYP3A4; test system = human, age 5 years, recombinant human CYP3A4; setting = 0.1 µM; endpoint = enzyme contribution to clearance; value = 1.08%
SMILES = O=C(c1ccc(F)c(F)c1Nc1ccc(I)cc1F)N1CC(O)([C@@H]2CCCCN2)C1; test system = human patients; setting = oral, 1 mg/kg, age ≥18 years; endpoint = treatment-related AE causing dose modification; value = 100%
SMILES = CC(C)C[C@H](NC(=O)[C@H](CCCCN)NC(=O)OCC1c2ccccc2-c2ccccc21)C(=O)N[C@H](C(=O)N[C@@H](Cc1ccccc1)C(=O)N[C@@H](Cc1ccccc1)C(=O)N[C@@H](CCCCN)C(=O)NCC(=O)N[C@@H](Cc1ccccc1)C(=O)N[C@@H](C)C(=O)N[C@@H](Cc1c[nH]c2ccccc12)C(=O)N[C@@H](CC(N)=O)C(=O)N[C@H](C(=O)N[C@H]1CSSC[C@@H](C(=O)N[C@@H](Cc2c[nH]cn2)C(=O)N[C@@H](CCCNC(=N)N)C(=O)N[C@@H](CCCNC(=N)N)C(=O)N[C@@H](C)C(=O)N[C@@H](CC(N)=O)C(N)=O)NC(=O)[C@H](C(C)C)NC(=O)[C@H](CCCNC(=N)N)NC(=O)[C@H](C(C)C)NC(=O)CNC(=O)[C@H](CC(N)=O)NC(=O)[C@H](CCCNC(=N)N)NC(=O)[C@H](Cc2ccc(O)cc2)NC(=O)[C@H](C(C)C)NC1=O)C(C)C)C(C)C; test system = ICR mice, blood; setting = intraductal mammary, 10 mg/kg, day 5; endpoint = platelet distribution width; value = 15.34 ± 0.15%
SMILES = COc1ccnc(C(=O)N[C@H]2COC(=O)[C@H](Cc3ccccc3)[C@@H](OC(=O)C(C)C)[C@H](C)OC2=O)c1OCOC(=O)C(C)C; test system = pond water; setting = 0.1 mg/L, 21.0 °C, whole system, aerobic mineralisation; endpoint = DT50; value = 0.11 days
SMILES = O=C(Nc1ccccc1)C1CCN(C(=O)Oc2cccnc2)CC1; assay = measured: ear and labyrinth disorders; test system = healthy women; setting = oral, 100 mg, 9 days; endpoint = subjects with adverse event; value = 15.4%
SMILES = CCC[C@@](N)(CO)CCc1ccc(OCCCCCC(C)C)cc1; test system = dog, male hounds, plasma; setting = oral capsule, 10 mg/kg, geometric mean; endpoint = AUC(0-t); value = 6.78 µM·h
SMILES = CO[C@H]1C[C@@H]2CC[C@@H](C)[C@@](O)(O2)C(=O)C(=O)N2CCCC[C@H]2C(=O)O[C@H]([C@H](C)C[C@@H]2CC[C@@H](OC(=O)NCCOCCOCCOCCOCCOCCOCCOCCOCCC(=O)N3CCc4cc(Cn5nc(-c6ccc7oc(N)nc7c6)c6c(N)ncnc65)ccc4C3)[C@H](OC)C2)C[C@@H](O)[C@H](C)/C=C(\C)[C@@H](O)[C@@H](OC)C(=O)[C@H](C)C[C@H](C)/C=C/C=C/C=C/1C; test system = patients with advanced solid tumours; setting = intravenous, 16 mg weekly, any grade; endpoint = pneumonia AE leading to dose reduction; value = 0%
SMILES = NC(=O)[C@H]1CCN(c2ncnc(N)c2F)C[C@@H]1N1CCC[C@@H](Nc2cc(Cl)cc(C(F)(F)F)c2)C1=O; test system = B-cell malignancy patients; setting = oral, 41 mg twice daily, dose; endpoint = grade ≥3 lymphopenia; value = 10%
SMILES = CN(C(=O)n1cnc(-c2ccc[n+]([O-])c2)c1)C1CCCCC1; test system = Wistar rat, medulla oblongata; setting = oral, 10 mg/kg/day, 72 h, repeated 5 days; endpoint = concentration; value = 9.5 ± 1.4 ng/g
SMILES = CCCCCCCCCCCCCCCC(=O)N[C@@H](CCC(=O)NCCCC[C@H](NC(=O)[C@H](CC(=O)O)NC(=O)[C@H](CO)NC(=O)[C@@H](NC(=O)[C@H](Cc1ccccc1)NC(=O)[C@@H](NC(=O)CNC(=O)[C@H](CCC(N)=O)NC(=O)[C@H](CO)NC(=O)[C@@H](N)Cc1c[nH]cn1)[C@@H](C)O)[C@@H](C)O)C(=O)N[C@@H](CO)C(=O)N[C@@H](CCC(=O)O)C(=O)N[C@@H](Cc1ccc(O)cc1)C(=O)N[C@@H](CC(C)C)C(=O)N[C@@H](CC(=O)O)C(=O)N[C@@H](CO)C(=O)N[C@@H](CCC(=O)O)C(=O)N[C@@H](CCCNC(=N)N)C(=O)N[C@@H](C)C(=O)N[C@@H](CCCNC(=N)N)C(=O)N[C@@H](CC(=O)O)C(=O)N[C@@H](Cc1ccccc1)C(=O)N[C@H](C(=O)N[C@@H](C)C(=O)N[C@@H](Cc1c[nH]c2ccccc12)C(=O)N[C@@H](CC(C)C)C(=O)N[C@@H](CCC(=O)O)C(=O)N[C@@H](C)C(=O)NCC(=O)NCC(=O)O)C(C)C)C(=O)O; assay = measured: Dyspepsia; test system = humans CrCl 20 to 30 mL/min; setting = subcutaneous, 100 µg single dose; endpoint = treatment-related adverse events; value = 0%
SMILES = Cc1ncnc2c1ccn2[C@@H]1C[C@H](Oc2cc(C(F)F)c(F)c3c2CNCC3)[C@@H](O)[C@H]1O; test system = patients; setting = dose not given, grade ≥3; scale = baseline: patients; endpoint = Dyspnea incidence; value = 0%
SMILES = COc1cc2c(Oc3ccc4[nH]c(C)cc4c3F)ccnc2cc1OCC1(N)CC1; test system = paediatric refractory sarcoma patients; setting = 8 mg; endpoint = ALT elevation incidence; value = 25%

Repeated from above:
SMILES = CC(C)C[C@H](NC(=O)[C@H](CCCCN)NC(=O)OCC1c2ccccc2-c2ccccc21)C(=O)N[C@H](C(=O)N[C@@H](Cc1ccccc1)C(=O)N[C@@H](Cc1ccccc1)C(=O)N[C@@H](CCCCN)C(=O)NCC(=O)N[C@@H](Cc1ccccc1)C(=O)N[C@@H](C)C(=O)N[C@@H](Cc1c[nH]c2ccccc12)C(=O)N[C@@H](CC(N)=O)C(=O)N[C@H](C(=O)N[C@H]1CSSC[C@@H](C(=O)N[C@@H](Cc2c[nH]cn2)C(=O)N[C@@H](CCCNC(=N)N)C(=O)N[C@@H](CCCNC(=N)N)C(=O)N[C@@H](C)C(=O)N[C@@H](CC(N)=O)C(N)=O)NC(=O)[C@H](C(C)C)NC(=O)[C@H](CCCNC(=N)N)NC(=O)[C@H](C(C)C)NC(=O)CNC(=O)[C@H](CC(N)=O)NC(=O)[C@H](CCCNC(=N)N)NC(=O)[C@H](Cc2ccc(O)cc2)NC(=O)[C@H](C(C)C)NC1=O)C(C)C)C(C)C; test system = ICR mice, blood; setting = intraductal mammary, 10 mg/kg, day 5; endpoint = platelet distribution width; value = 15.34 ± 0.15%
